Assay results collected from several papers.
Every numbered part comes from another study and shows a few of its results, in no order.
Sequence of UniProt O15294 (whole entry, looked up): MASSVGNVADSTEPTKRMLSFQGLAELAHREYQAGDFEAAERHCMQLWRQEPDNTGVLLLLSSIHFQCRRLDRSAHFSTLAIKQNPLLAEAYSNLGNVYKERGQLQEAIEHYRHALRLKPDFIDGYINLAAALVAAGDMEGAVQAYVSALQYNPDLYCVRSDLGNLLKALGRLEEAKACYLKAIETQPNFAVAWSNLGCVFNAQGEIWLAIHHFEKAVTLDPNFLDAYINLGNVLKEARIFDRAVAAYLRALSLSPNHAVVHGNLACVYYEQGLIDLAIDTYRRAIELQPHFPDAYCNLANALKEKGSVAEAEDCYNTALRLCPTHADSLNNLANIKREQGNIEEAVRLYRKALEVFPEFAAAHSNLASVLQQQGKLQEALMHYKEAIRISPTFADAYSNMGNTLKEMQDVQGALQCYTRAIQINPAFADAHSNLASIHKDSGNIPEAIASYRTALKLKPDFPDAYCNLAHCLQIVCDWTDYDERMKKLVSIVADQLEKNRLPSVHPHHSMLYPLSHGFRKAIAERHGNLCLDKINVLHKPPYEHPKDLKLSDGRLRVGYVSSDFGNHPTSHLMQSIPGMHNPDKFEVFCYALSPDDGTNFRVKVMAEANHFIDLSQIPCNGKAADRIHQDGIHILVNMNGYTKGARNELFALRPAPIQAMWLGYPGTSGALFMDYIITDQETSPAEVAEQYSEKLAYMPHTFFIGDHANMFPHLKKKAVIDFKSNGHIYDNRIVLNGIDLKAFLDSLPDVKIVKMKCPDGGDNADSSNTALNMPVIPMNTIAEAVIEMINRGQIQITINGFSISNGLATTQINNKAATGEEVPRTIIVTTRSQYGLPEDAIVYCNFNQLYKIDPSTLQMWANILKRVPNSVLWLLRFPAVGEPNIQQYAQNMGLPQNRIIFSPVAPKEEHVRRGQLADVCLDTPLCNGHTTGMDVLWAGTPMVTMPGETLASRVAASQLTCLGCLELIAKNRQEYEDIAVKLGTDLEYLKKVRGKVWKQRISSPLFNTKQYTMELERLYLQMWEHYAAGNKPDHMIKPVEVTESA

Sample 1
Target: Prothrombin, mature alpha-thrombin (F2, Homo sapiens, UniProt P00734)
Technique: aptamer microarray, sandwich
Form: DNA with 2'F-ANA
Sample: in vitro
Tested at: 200 nM
Notes: whole 15-mer aptamer, many near background
Together with: Cy3 exosite-II aptamer, 400 nM
Direction: higher = stronger binding
Strand: GGTTGGTGTGGTTGG
For `2'F-ANA at 1 3 5 7 8 9 11 14 15`, “mean fluorescence intensity” read 52 a.u.
`2'F-ANA at 2 3 6 7 8 12 13` — result for “mean fluorescence intensity”: 1050 a.u.
`2'F-ANA at 2 4 5 6 10 14 15`: “mean fluorescence intensity” 54.7 a.u.
For `2'F-ANA at 3 4 5 6 9 10 14 15`, “mean fluorescence intensity” read 59 a.u.
`2'F-ANA at 1 2 4 5 6 8 10 11 13 14`: “mean fluorescence intensity” 55 a.u.
`2'F-ANA at 4 5 9 10 11 13 15` — result for “mean fluorescence intensity”: 46.1 a.u.
Under “mean fluorescence intensity”, `2'F-ANA at 2 4 6 8 9 10 11 13` is recorded as 64.7 a.u.
For `2'F-ANA at 2 3 4 5 10 11 12 14 15`, “mean fluorescence intensity” read 49.3 a.u.

Sample 2
Target: RING finger protein unkempt homolog, zinc fingers 1-6, GST-SBP tag (UNK, Homo sapiens, UniProt Q9C0B0, residues 30-357)
Technique: RNA Bind-n-Seq
Form: RNA
Sample: in vitro
Tested at: not given
Notes: RNA with constant flanks, ends assumed
Baseline: input RNA pool
Direction: higher = stronger binding
Shared flanks, not repeated: GGGAGUUCUACAGUCCGACGAUC … CAACAGAGGAUUGAGCAUCA
Residues (chain): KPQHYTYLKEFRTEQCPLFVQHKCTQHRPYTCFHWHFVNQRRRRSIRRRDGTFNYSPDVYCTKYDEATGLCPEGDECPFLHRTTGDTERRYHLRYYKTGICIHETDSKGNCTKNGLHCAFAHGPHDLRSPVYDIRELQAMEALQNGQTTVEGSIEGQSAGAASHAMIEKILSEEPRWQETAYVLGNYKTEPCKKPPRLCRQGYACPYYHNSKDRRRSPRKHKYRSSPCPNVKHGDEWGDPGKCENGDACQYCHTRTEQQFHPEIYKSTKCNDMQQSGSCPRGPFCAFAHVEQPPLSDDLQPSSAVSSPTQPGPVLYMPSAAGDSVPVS
`GGGACGAUUCAUCUCUUUCGAAAGCCACAGAGAUCUUUUUUUGGAAAGUUACUACAGGAAUUCCGACUUGUCGCAGCUGACCGGAGGUCCUGGAAGAUCCUUCUGUUCGGUGCAAUCAAC` gave a bound/input enrichment of 0.094 ratio.
With `UAGAGAUGAUAUCAAUUAUUACCUAUUGUUGCACUGACUUAUACGUAGAUCAAUAGGAGAUUCCGAUGCCCUUAUGCUGUGAGUUUGAUGUGAUUUCAUUAGCUGCAUGGUGCUUUCUGA` the bound/input enrichment was 0.981 ratio.
`AAGAGCUAACAGAAAACAUUUUGAAAGUGCUCAAAGAACAAGCUGCUGAUUCUAUUUUGGUACCCGAAGCAGCCCUAAAAUUAAACAAGGAUCUUUAUGUCCAUACGAUGAGAACUCUAG` gave a bound/input enrichment of 0.202 ratio.
For `GUUUAUUCUCAGAGCACUGCUCUCACUCAUAAGCAGUCUUAUUAUUCCAUUGCCAAAUGUGCCGCUGCCCUUACUCGAGCUUGCCCUAAAGAGGGACCCGCCGUAGUAGGUCAGUUUAUU`, the bound/input enrichment was 0.32 ratio.
With `GUUGUUUUUGUUUUGAGACAGGGCCUCACUGUGCGGCCCUGGCUGGCCUGGAACUUGCUAUACCGACCAGGCUAACCUGGAACUCAGCGAACUGUCUGCCCAGCCUUCUUUGGUUUUAUU` the bound/input enrichment was 0.092 ratio.
`AGGCACUAUCUCAUUCAUACUGGUCAAAAGCCAUUUGAAUGUGAUGUGUGUCAUAAAACCUUCCGACAACUAGUUCAUCUGGAGAGGCAUCAACUAACUCAUAGUCUGCCUUUUAAAUGU` has a bound/input enrichment of 0.128 ratio.
`GAGCAAGAAUUUCAAACAUGCCUGACAAUCUGAUCUCUCUUGAAAUAAAGAGGGAUGCCAUCCGUCCCGACGUCGUUGUGAAAUCCUUGAGAUAUAAAGUGUGACUGGGUGUUUUCAAGA` gave a bound/input enrichment of 0.211 ratio.
The bound/input enrichment of `GAAUAGGUUGGGUAUAACACCUGCAGUUUCCAGCUCUAUGAAACAGGAGAGAGAGAGAAACCGCAGUUUGACUUGACUGUGGAAGAUGAUGGUUGCAUGCUUCUCAUUUGUACGUUUCCA` is reported as 0.189 ratio.

Sample 3
Target: Interferon regulatory factor 5, full length, phosphomimetic (IRF5, Homo sapiens, UniProt Q13568-2, residues 1-514, S451D/S453D/S456D/S462D)
Technique: protein-binding microarray
Form: double-stranded DNA, one strand shown
Sample: in vitro
Tested at: 940 nM top
Notes: 60-bp whole probe
Together with: salmon DNA 0.4 mg/ml
Baseline: random background probes
Direction: higher = stronger binding
Shared flanks, not repeated: GCCTAGCAC … GTCTTGATTCGCTTGACGCTGCTG
`CAGGAATGGCACCAGCAGGGGTGCTAG`: “fitted relative affinity” -0.765 z-score.
For `CTGAGGCTGTGTTTTCACTTTGTGCTA`, “fitted relative affinity” read 0.0445 z-score.
`TCACTTCTCCCTTTCAGTTTGTGCTAG` — result for “fitted relative affinity”: 1.46 z-score.
Under “fitted relative affinity”, `TTATATATCGGGTATCGATTAGTGCTA` is recorded as 3 z-score.
For `TTAGAACTGGGGTTTCGACTAGTGCTA`, “fitted relative affinity” read 2.51 z-score.
Under “fitted relative affinity”, `AAGGGTTAAAATTTTGCTTCGTGCTAG` is recorded as -0.000145 z-score.
Under “fitted relative affinity”, `GACGGTTTCGTCTATCGGGACGTGCTA` is recorded as 6.9 z-score.
Under “fitted relative affinity”, `CACGATCTCAGTCTCGAGACGTGCTAG` is recorded as 1.78 z-score.

Mixed results
`YVDWGVWHKDFNMPH`: “enrichment fold change” 2.3 (UDP-N-acetylglucosamine--peptide N-acetylglucosaminyltransferase 110 kDa subunit (OGT, Homo sapiens, UniProt O15294); binding, phage display NGS; peptide; concentration not given; baseline: input library).

Repeated from above (sample 1):
Under “mean fluorescence intensity”, `2'F-ANA at 2 4 6 8 9 10 11 13` is recorded as 64.7 a.u.
